Measured values collected from several papers.
Every numbered part comes from another study and shows a few of its results, in no order. Positions count from the first letter of the parent shown.

Set 1 — method: universal PBM; form: double-stranded DNA, one strand shown; matrix: in vitro; concentration: not given; reading: higher = stronger binding
Target: Sal-like protein 4, full length isoform B (SALL4, Homo sapiens, UniProt Q9UJQ4-2, residues 1-616)
Setting: 8-mer, flanks averaged, mean of replicates
Oligonucleotide | E-score
AGATAAAC | 0.194
CGTGGTCC | -0.309
GGTCTCAA | -0.103
CGGGAATA | 0.0793
TCCCTAAA | 0.166
ATGCTACG | 0.0896
CCATTGGG | -0.228
CCCCTCAA | -0.11
CGCTCCCG | -0.28
GTGGGGTA | 0.00529
ATATTGCC | 0.273
GCAGAGGA | -0.124
AGTTTTCG | 0.093

Set 2 — target: CCNA2, cyclin fold, Cln2 fusion (human); method: yeast growth competition, sequencing; matrix: yeast; setting: strong parent motif; baseline: not given; reading: higher = stronger binding
Starting sequence: REV3L docking peptide (human); PPVIIKYIIINRF
Change | normalised enrichment score
I9A | 0.757
K6A | -0.0249
V3A | 1.56
I10A | 1.86
N11A | 0.965
I5A | 0.57

Set 3 — method: protein-binding microarray; form: double-stranded DNA, one strand shown; matrix: in vitro; concentration: 250 nM; setting: 60-bp whole probe; together with: salmon DNA 0.4 mg/ml; baseline: random background probes; reading: higher = stronger binding; constant ends, left off below: GCCTAGCAC … GTCTTGATTCGCTTGACGCTGCTG
Target: Interferon regulatory factor 5, full length, phosphomimetic (IRF5, Homo sapiens, UniProt Q13568-2, residues 1-514, K96S/S451D/S453D/S456D/S462D)
Oligonucleotide | log fluorescence
TCAGAACTGTTTCTTGAACTGTGCTAG | 0.538 z-score
TTAGTACTGGGTTTCGGTTAGTGCTAG | 7.82 z-score
TTAGGTATCGACTATCCGTTAGTGCTA | 3.75 z-score
TTAGGACTCCTTATCCTTTAGTGCTAG | 0.162 z-score
TCAAGTTTTAATAACACACTGTGCTAG | 0.214 z-score
TTAGGTATCGAACTGGGTTAGTGCTAG | 1.16 z-score
TCATTCATGAAATTTTAGACTGTGCTA | 0.56 z-score
GACGGACTGGGGTTGCGGGACGTGCTA | -0.378 z-score
TTAGAACTTAGACTGGATTAGTGCTAG | -0.214 z-score
TCACAATTCTCTTTTCAACTGTGCTAG | 0.898 z-score
TCAACTTTGGAGATGACACTGTGCTAG | -0.0526 z-score

Further values, each from its own experiment
Substance | target | test | test system | conditions | how to read | measurement | value
PhoQ, residues 284 288 289 292 302 303 TSTLRA | PhoP, residues 12 14 15 18 19 NYFTV (Escherichia coli, UniProt P23836) | Sort-seq, item: YFP reporter | E. coli | PhoQ-PhoP variant library, together with: 10 µM Mg2+ | baseline: high Mg2+ state, higher = stronger signaling | fold induction | 1.35

Repeated from above (set 3):
Oligonucleotide | log fluorescence
TTAGTACTGGGTTTCGGTTAGTGCTAG | 7.82 z-score
TTAGGTATCGACTATCCGTTAGTGCTA | 3.75 z-score
TTAGGACTCCTTATCCTTTAGTGCTAG | 0.162 z-score
TCAAGTTTTAATAACACACTGTGCTAG | 0.214 z-score
